Results from different studies.
Each line is one published result; not all experiments were run side by side. “And” joins repeats or separate records; there may be more than shown. Numbers after ± are the reported error.

CCN1CCN(Cc2ccc(NC(=O)c3ccc(C)c(NC(=O)c4cncc(-c5cccs5)c4)c3)cc2C(F)(F)F)CC1 — plasma concentration (LC-MS/MS; C57BL/6 mouse, plasma; intraperitoneal, 15 mg/kg single dose, 0.5 h): 520 ng/mL and 490 ng/mL and 605 ng/mL
C[C@H](CCC(=O)NCCS(=O)(=O)O)[C@H]1CC[C@H]2[C@@H]3CC[C@@H]4C[C@H](O)CC[C@]4(C)[C@H]3C[C@H](O)[C@]12C — plasma concentration (healthy human volunteers, plasma; dose not given, 0 h, baseline phase, no drug): 34 ± 18.1 nM
Cc1c(C(=O)O)ccc2c3n(nc12)[C@@H]1[C@H](C3)N(CC2CC2)[C@@]2(C(=O)Nc3cc(Cl)ccc32)[C@H]1c1cccc(Cl)c1F — plasma concentration (female BALB/c nude mice, plasma; oral, 2 mg/kg once daily, 31 h, SJSA-1 tumour-bearing): 372 nM and 688 nM and 396 nM and 414 nM and 265 nM
O=C(O)CCCCCCCCCCCCCCCCC(=O)O — plasma concentration (healthy human volunteers, plasma; dose not given, 0 h, control phase, probe drugs alone): 81.6 ± 7.4 nM
C[C@H]1O[C@@H](O[C@H]2CC[C@@]3(C)[C@@H](CC[C@]4(C)[C@@H]3C=C[C@]35OC[C@@]6(CCC(C)(C)C[C@H]63)[C@@H](O)C[C@]54C)[C@]2(C)CO)[C@H](O)[C@@H](O[C@@H]2O[C@H](CO)[C@@H](O)[C@H](O)[C@H]2O)[C@H]1O — plasma concentration (UHPLC-MS/MS; mouse, plasma; oral, 50 mg/kg, 2 h): 4.79 ng/mL
COc1cc2c(cc1OC)CN(CCc1ccc(NC(=O)c3cc(OC)c(OC)cc3NC(=O)c3cnc4ccccc4c3)cc1)CC2 — plasma concentration (human, plasma; intravenous, 5.9 mg/kg, 90 min): 2710 nM
C[C@H](CCC(=O)O)[C@H]1CC[C@H]2[C@@H]3[C@H](O)C[C@@H]4C[C@H](O)CC[C@]4(C)[C@H]3C[C@H](O)[C@]12C — plasma concentration (healthy human volunteers, plasma; dose not given, 0 h, baseline phase, no drug): 60.1 ± 20.2 nM
CN1CCN(c2ccc(OC(F)(F)F)c(Nc3ncc4c(n3)-c3c(c(C(N)=O)nn3CCO)CC4)c2)CC1 — plasma concentration (LC-MS/MS; human, plasma; oral, 12 mg/m2, 3 h post-dose): 95.9 ng/mL and 60.7 ng/mL
COc1cccc(-c2n[nH]c(SCc3ccccn3)n2)c1OC — plasma concentration (Sprague-Dawley rats, both sexes; oral dietary, 100 mg/kg/day, day 7, 6 h): 4720 ng/mL
Cc1c(-c2ccc(N3CCc4cccc(C(=O)Nc5nc6ccccc6s5)c4C3)nc2C(=O)O)cnn1CC12CC3(C)CC(C)(C1)CC(OCCNCC[C@H](O)CO)(C3)C2 — plasma concentration (anaesthetized male beagle dog; iv infusion, 0.1 mg/kg/min, 135 min): < 4 ng/mL
CCOCc1nc(O)c(-c2nnc(Cc3ccc(Cl)cn3)o2)c(O)c1-c1c(OC)cccc1OC — plasma concentration (anaesthetised rat, plasma; intravenous infusion, 100 µg/kg/min, 5 min): 7860 ± 201 nM
C[C@@H]1CCO[C@H]2Cn3cc(C(=O)NCc4ccc(F)cc4F)c(=O)c(O)c3C(=O)N12 — plasma concentration (population PK, post-hoc; infants aged ≥1 months, 3 to <6 kg, plasma; oral, 5 mg dispersible tablet, 24 h, steady state, geometric mean): 886 ng/mL
CCn1c(C(=O)N(C2CC2)C2CC2)cc2c3c(ncn3C)c(Nc3cc(C)n(C)n3)nc21 — plasma concentration (cancer patients; oral, 200 mg single dose, day 1, 2.0 h): 2020 ng/mL

Repeated from above:
CCOCc1nc(O)c(-c2nnc(Cc3ccc(Cl)cn3)o2)c(O)c1-c1c(OC)cccc1OC — plasma concentration (anaesthetised rat, plasma; intravenous infusion, 100 µg/kg/min, 5 min): 7860 ± 201 nM
